# Experimental data collected from several papers.
# Compare with care: the assays were run in different laboratories. ± gives the spread as reported. Ends that are not written are not given here. No end group written: not given here.
# B1: UGT1A9 (Homo sapiens, UniProt O60656); chain GKLLVVPMDGSHWFTMRSVVEKLILRGHEVVVVMPEVSWQLGRSLNCTVKTYSTSYTLEDLDREFKAFAHAQWKAQVRSIYSLLMGSYNDIFDLFFSNCRSLFKDKKLVEYLKESSFDAVFLDPFDNCGLIVAKYFSLPSVVFARGILCHYLEEGAQCPAPLSYVPRILLGFSDAMTFKERVRNHIMHLEEHLLCHRFFKNALEIASEILQTPVTEYDLYSHTSIWLLRTDFVLDYPKPVMPNMIFIGGINCHQGKPLPMEFEAYINASGEHGIVVFSLGSMVSEIPEKKAMAIADALGKIPQTVLWRYTGTRPSNLANNTILVKWLPQNDLLGHPMTRAFITHAGSHGVYESICNGVPMVMMPLFGDQMDNAKRMETKGAGVTLNVLEMTSEDLENALKAVINDKSYKENIMRLSSLHKDRPVEPLDLAVFWVEFVMRHKGAPHLRPAAHDLTWYQYHSLDVIGFLLAVVLTVAFITFKCCAYGYRKCLGKKGRVKKAHKSKTH
# B2: neurofilament light chain; sequence looked up; chain SSFSYEPYYSTSYKRRYVETPRVHISSVRSGYSTARSAYSSYSAPVSSSLSVRRSYSSSSGSLMPSLENLDLSQVAAISNDLKSIRTQEKAQLQDLNDRFASFIERVHELEQQNKVLEAELLVLRQKHSEPSRFRALYEQEIRDLRLAAEDATNEKQALQGEREGLEETLRNLQARYEEEVLSREDAEGRLMEARKGADEAALARAELEKRIDSLMDEISFLKKVHEEEIAELQAQIQYAQISVEMDVTKPDLSAALKDIRAQYEKLAAKNMQNAEEWFKSRFTVLTESAAKNTDAVRAAKDEVSESRRLLKAKTLEIEACRGMNEALEKQLQELEDKQNADISAMQDTINKLENELRTTKSEMARYLKEYQDLLNVKMALDIEIAAYRKLLEGEETRLSFTSVGSITSGYSQSSQVFGRSAYGGLQTSSYLMSTRSFPSYYTSHVQEEQIEVEETIEAAKAEEAKDEPPSEGEAEEEEKDKEEAEEEEAAEEEEAAKEESEEAKEEEEGGEGEEGEETKEAEEEEKKVEGAGEEQAAKKKD
# B3: HEM1 (Saccharomyces cerevisiae, UniProt P09950); chain AAAAANHSTQESGFDYEGLIDSELQKKRLDKSYRYFNNINRLAKEFPLAHRQREADKVTVWCSNDYLALSKHPEVLDAMHKTIDKYGCGAGGTRNIAGHNIPTLNLEAELATLHKKEGALVFSSCYVANDAVLSLLGQKMKDLVIFSDELNHASMIVGIKHANVKKHIFKHNDLNELEQLLQSYPKSVPKLIAFESVYSMAGSVADIEKICDLADKYGALTFLDEVHAVGLYGPHGAGVAEHCDFESHRASGIATPKTNDKGGAKTVMDRVDMITGTLGKSFGSVGGYVAASRKLIDWFRSFAPGFIFTTTLPPSVMAGATAAIRYQRCHIDLRTSQQKHTMYVKKAFHELGIPVIPNPSHIVPVLIGNADLAKQASDILINKHQIYVQAINFPTVARGTERLRITPTPGHTNDLSDILINAVDDVFNELQLPRVRDWESQGGLLGVGESGFVEESNLWTSSQLSLTNDDLNPNVRDPIVKQLEVSSGIKQ
# B4: enzyme (Bacillus pumilus, UniProt A8FFI9); chain EARSIAWSVDEFFKNREGTFVIQEVKEKSPWVYNKKRAKERFAPQSTFKVANALIGLQTGAVRDEYDIKYWDGVKREIDNWNRDHTLGSGMRDSVVWYYQAMARDIGEERMNHWVKAIHYGNKDISGGIDQFWLSSTLRISPIEQVRFLKQLYEETLPFDLKNMRTVKRMMVQEEEKHATLYGKTGSGSDIGWYVGFIKHEHKTYILATNIKGTGIEAKDITYRILKKYHLMEASV
# UniProt P01921, sequence (whole entry, looked up): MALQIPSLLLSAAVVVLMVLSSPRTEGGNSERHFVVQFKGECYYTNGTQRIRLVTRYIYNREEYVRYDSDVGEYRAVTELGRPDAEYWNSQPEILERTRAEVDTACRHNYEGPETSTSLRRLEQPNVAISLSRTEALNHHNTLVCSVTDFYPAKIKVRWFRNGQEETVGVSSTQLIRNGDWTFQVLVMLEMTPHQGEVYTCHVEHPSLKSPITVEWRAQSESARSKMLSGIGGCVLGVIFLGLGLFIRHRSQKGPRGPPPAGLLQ
# UniProt Q9H4B4, sequence (whole entry, looked up): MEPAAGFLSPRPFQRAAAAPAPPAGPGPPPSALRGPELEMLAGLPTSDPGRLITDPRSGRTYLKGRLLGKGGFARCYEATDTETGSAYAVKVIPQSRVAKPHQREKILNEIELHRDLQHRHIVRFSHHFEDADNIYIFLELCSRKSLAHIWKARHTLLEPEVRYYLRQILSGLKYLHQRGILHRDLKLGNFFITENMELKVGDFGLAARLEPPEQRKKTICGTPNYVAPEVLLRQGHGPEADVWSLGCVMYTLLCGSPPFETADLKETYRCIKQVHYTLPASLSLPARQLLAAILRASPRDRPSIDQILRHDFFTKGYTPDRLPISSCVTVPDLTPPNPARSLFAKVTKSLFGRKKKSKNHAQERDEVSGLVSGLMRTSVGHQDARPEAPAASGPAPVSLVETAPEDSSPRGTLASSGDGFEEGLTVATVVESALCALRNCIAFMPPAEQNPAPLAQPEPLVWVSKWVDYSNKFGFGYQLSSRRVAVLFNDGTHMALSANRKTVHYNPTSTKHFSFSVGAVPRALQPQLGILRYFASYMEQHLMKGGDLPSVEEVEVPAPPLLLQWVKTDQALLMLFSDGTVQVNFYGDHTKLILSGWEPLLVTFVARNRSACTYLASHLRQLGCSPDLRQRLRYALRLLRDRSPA
# UniProt P04228, sequence (whole entry, unmodified, looked up): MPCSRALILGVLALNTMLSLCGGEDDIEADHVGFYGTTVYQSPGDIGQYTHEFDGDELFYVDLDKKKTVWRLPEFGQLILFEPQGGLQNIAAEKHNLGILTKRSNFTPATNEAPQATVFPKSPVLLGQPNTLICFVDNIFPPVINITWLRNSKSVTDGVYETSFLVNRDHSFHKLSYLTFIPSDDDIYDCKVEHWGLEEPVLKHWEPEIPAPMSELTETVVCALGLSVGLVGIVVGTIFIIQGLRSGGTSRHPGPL
Substance,target or system,assay,test system,setting,scale,endpoint,value
insulin degludec,,,"human, end-stage renal disease","single dose, non-dialysis profile",baseline: ESRD over normal renal function,Cmax ratio,1.05
COc1cccc2c1C(=O)c1c(O)c3c(c(O)c1C2=O)C[C@@](O)(C(=O)CO)C[C@@H]3O[C@H]1C[C@H](NC(=O)[C@@H]2CCCN2C(=O)CNC(=O)[C@@H](N)CC(C)C)[C@H](O)[C@H](C)O1,,,"mouse, E0771 tumour-bearing, plasma","intravenous, 92 µmol/kg PhAc-ALGP-Dox",,Cmax,0.74 µM
"KCNTATCATQRLANFLVHSSNNFGPILPPTNVGSNTY (Pramlintide; not fully specified (C-terminus, bridges); cysteine pairing not given here; sequence looked up)",,refers to: Diarrhea,"peptide, obese or overweight humans","concentration not given, ITT population",,adverse event incidence,5.4%
"GLHST (FITC-labelled, PEGylated)","Serine/threonine-protein kinase PLK3, polo-box domain (PLK3, Homo sapiens, UniProt Q9H4B4)","binding, fluorescence polarization",,"polo-box domain, together with: FITC-labelled peptide",,Kd,> 2560 nM
B1 (UGT1A9),O=c1c(O)c(-c2ccccc2O)oc2cc(O)cc(O)c12,steady-state kinetics,,"pH 7.4, 37 °C",,Vmax/Km,100 µL/min/mg
insulin icodec,,,"Japanese type 1 diabetes patients, serum","subcutaneous, once weekly",,time to steady state,2 to 3 weeks
CC1=C(I)C(C)=[N+]2C1=C(c1ccc(OCCn3cc(CNC(=O)CSC[C@H](NC(=O)c4ccc(-c5nnc(C)c6c5CCC(O)CCC6)cc4)C(=O)N[C@@H](CC4CCCCC4)C(=O)N[C@H](CCCNC(=N)N)C(=O)N[C@@H](CC4CCCCC4)C(=O)N[C@H](CCCNC(=N)N)C(=O)N[C@@H](CC4CCCCC4)C(=O)N[C@H](CCCNC(=N)N)C(N)=O)nn3)cc1)c1c(C)c(I)c(C)n1[B-]2(F)F (stereo partly shown),,,,"1 µM, together with: DPBF, 525 nm light","baseline: rose bengal, erythrosine B",singlet oxygen quantum yield,0.59
insulin aspart,,,"elderly type 1 diabetes, serum","subcutaneous, 0.2 U/kg",,onset of appearance,5.2 min
teriparatide,,ELISA,healthy women,"sc, 20 µg single dose, reference product, geometric mean",,AUC(0-inf),0.103 ng·h/mL
CSCC[C@H](NC(=O)[C@H](CC(C)C)NC(=O)[C@H](Cc1c[nH]cn1)NC(=O)CNC(=O)[C@@H](NC(=O)[C@H](C)NC(=O)[C@H](Cc1c[nH]c2ccccc12)NC(=O)[C@H](CCC(N)=O)NC(=O)CCCCCNC(=O)[C@H](CCC(=O)NCCCC[C@@H]1NC(=O)[C@@H](Cc2ccc(O)cc2)NC(=O)[C@H](CC(=O)O)NC(=O)CNC(=O)[C@H](CCCNC(=N)N)NC1=O)NC(=O)CN1CCN(CC(=O)O)CCN(CC(=O)O)CC1)C(C)C)C(N)=O [copper-64 labelled],,,"ICR SCID mouse, female, lung","intravenous, 750 kBq, 24 h",,tissue uptake,0.56 ± 0.16 %ID/g
insulin aspart,,,"healthy subjects, plasma","subcutaneous, 0.2 U/kg",,AUC(0-inf),8.14 ng·h/mL
B2 (neurofilament light chain),,,human EDTA whole blood,"24 h, 2 to 8 °C, delayed centrifugation",,stability,stable
insulin aspart,,,"obese type 2 diabetes patients, serum","subcutaneous, 0.2 U/kg, geometric mean",,AUC(0-6 h),1290 pmol·h/L
insulin aspart,,ELISA,"Japanese type 1 diabetes patients, serum","subcutaneous, 0.2 U/kg",,onset of appearance,7.1 min
CCCCCCCCCCCCCCCC(=O)NCCCC[C@H](NC(=O)[C@H](CSCC(=O)NCc1cn(CCOc2ccc(C3=C4C(C)=C(I)C(C)=[N+]4[B-](F)(F)n4c(C)c(I)c(C)c43)cc2)nn1)NC(=O)c1ccc(-c2nnc(C)c3c2CCC(O)CCC3)cc1)C(=O)N[C@@H](CCCNC(=N)N)C(=O)N[C@@H](CCCNC(=N)N)C(=O)N[C@@H](CCCNC(=N)N)C(=O)N[C@@H](CCCNC(=N)N)C(N)=O (stereo partly shown),,,,"1 µM, together with: DPBF, 525 nm light","baseline: rose bengal, erythrosine B",singlet oxygen quantum yield,0.59
insulin glulisine,,,"obese type 2 diabetes patients, serum","subcutaneous, 0.2 U/kg, geometric mean",,AUC(0-6 h),2000 pmol·h/L
SIYNFEKL,OT-I CD8+ T cells,,peptide,"concentration not given, primed 5 d, OVA257 100 ng/mL restimulation, together with: no TGF-beta1",,TNF-alpha+ cells,65.3%
insulin degludec,,,healthy Chinese participants,"subcutaneous, 17 U",,median Tmax,11 h
CC(C)[C@H](NC(=O)[C@@H]1CCCN1C(=O)[C@H](CCCNC(=N)N)NC(=O)[C@H](CS)NC(=O)[C@H](Cc1c[nH]c2ccccc12)NC(=O)[C@H](CCCNC(=N)N)NC(=O)[C@@H](Cc1ccccc1)NC(=O)[C@H](Cc1c[nH]cn1)NC(=O)[C@H](CCC(=O)O)NC(=O)[C@H](CS)NC(=O)[C@H](CS)NC(=O)[C@H](CCCCN)NC(=O)[C@@H]1CC(=O)N[C@@H](CCCNC(=N)N)C(=O)N[C@@H](C)C(=O)N[C@@H](CC(=O)O)C(=O)N[C@H](Cc2ccc(O)cc2)C(=O)N1)C(N)=O [technetium-99m labelled],,,"C57 mice, heart","intravenous, 0.037 MBq, 0.5 h",,tissue uptake,2.12 ± 0.46 %ID/g
"AMKQHGLDAYRSYSL (HEL(11–25) R14Q/N19A/G22S; also: fluorescein (FITC) label, position not given here)","H2-Ab1/H2-Aa (Mus musculus, UniProt P01921+P04228)","class II-peptide complex dissociation, SEC-HPLC fluorescence","peptide, soluble I-A FITC-peptide complex","pH 5.3, 37 °C, together with: unlabeled Eα 5 µM",,half-life,33 h
SIIVFEKL,OT-I CD8+ T cells,"refers to: IL-2, IFN-gamma, TNF-alpha",peptide,"primed 5 d, OVA257 100 ng/mL restimulation, together with: 20 ng/mL TGF-beta1 from day 2",,double cytokine producers,8.19%
COc1cccc2c1C(=O)c1c(O)c3c(c(O)c1C2=O)C[C@@](O)(C(=O)CO)C[C@@H]3O[C@H]1C[C@H](NC(=O)[C@@H]2CCCN2C(=O)CN)[C@H](O)[C@H](C)O1,,,"mouse, E0771 tumour-bearing, kidney","intravenous, 92 µmol/kg PhAc-ALGP-Dox",,Cmax,54 µM
B3 (HEM1),CC(C)(COP(=O)(O)OP(=O)(O)OC[C@H]1O[C@@H](n2cnc3c(N)ncnc32)[C@H](O)[C@@H]1OP(=O)(O)O)[C@@H](O)C(=O)NCCC(=O)NCCSC(=O)CCC(=O)O,steady-state kinetics,,"pH 7.4, 30 °C",,K0.5,26 µM
"speG (Vibrio cholerae, UniProt Q9KL03)",NCCCCNCCCN,steady-state kinetics,,"pH 9, 37 °C",,K0.5,1320 µM
B4 (enzyme),CC1(C)S[C@@H]2[C@H](NC(=O)[C@H](C(=O)O)c3ccsc3)C(=O)N2[C@H]1C(=O)O,steady-state kinetics,,pH 7,,kcat/Km,1.1e+06 ± 200000 M⁻¹ s⁻¹

# Repeated from above:
Substance,target or system,assay,test system,setting,scale,endpoint,value
insulin aspart,,ELISA,"Japanese type 1 diabetes patients, serum","subcutaneous, 0.2 U/kg",,onset of appearance,7.1 min
CSCC[C@H](NC(=O)[C@H](CC(C)C)NC(=O)[C@H](Cc1c[nH]cn1)NC(=O)CNC(=O)[C@@H](NC(=O)[C@H](C)NC(=O)[C@H](Cc1c[nH]c2ccccc12)NC(=O)[C@H](CCC(N)=O)NC(=O)CCCCCNC(=O)[C@H](CCC(=O)NCCCC[C@@H]1NC(=O)[C@@H](Cc2ccc(O)cc2)NC(=O)[C@H](CC(=O)O)NC(=O)CNC(=O)[C@H](CCCNC(=N)N)NC1=O)NC(=O)CN1CCN(CC(=O)O)CCN(CC(=O)O)CC1)C(C)C)C(N)=O [copper-64 labelled],,,"ICR SCID mouse, female, lung","intravenous, 750 kBq, 24 h",,tissue uptake,0.56 ± 0.16 %ID/g
insulin degludec,,,healthy Chinese participants,"subcutaneous, 17 U",,median Tmax,11 h
